Assay results gathered from unrelated publications.
Each numbered part is a random draw from the data of one study; scales do not carry over between parts.

Series 1
Target: Sal-like protein 4, full length isoform B (SALL4, Homo sapiens, UniProt Q9UJQ4-2, residues 1-616)
Technique: universal PBM
Molecule type: double-stranded DNA, one strand shown
Medium: in vitro
Concentration: not given
Notes: 8-mer, flanks averaged, mean of replicates
Reading: higher = stronger binding
Construct (chain): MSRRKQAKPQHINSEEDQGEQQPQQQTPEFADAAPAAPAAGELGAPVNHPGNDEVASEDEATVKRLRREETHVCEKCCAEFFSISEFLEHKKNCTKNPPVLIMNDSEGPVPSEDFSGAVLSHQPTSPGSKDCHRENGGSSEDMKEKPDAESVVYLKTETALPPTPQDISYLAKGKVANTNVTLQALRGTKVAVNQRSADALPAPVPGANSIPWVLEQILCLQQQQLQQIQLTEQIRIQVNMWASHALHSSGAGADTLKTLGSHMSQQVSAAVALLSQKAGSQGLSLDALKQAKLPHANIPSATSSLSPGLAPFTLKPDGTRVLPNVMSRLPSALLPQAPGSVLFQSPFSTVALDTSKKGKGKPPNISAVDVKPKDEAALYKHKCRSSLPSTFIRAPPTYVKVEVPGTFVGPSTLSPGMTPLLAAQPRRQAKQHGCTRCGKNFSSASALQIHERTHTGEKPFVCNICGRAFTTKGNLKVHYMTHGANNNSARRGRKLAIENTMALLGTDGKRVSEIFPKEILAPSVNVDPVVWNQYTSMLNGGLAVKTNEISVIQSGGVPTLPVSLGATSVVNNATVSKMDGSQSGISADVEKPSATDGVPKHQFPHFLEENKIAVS
| Sequence | E-score |
| --- | --- |
| CCCCCTTA | -0.101 |
| ACATTGCC | -0.0717 |
| GTCCTAGA | -0.123 |
| CGCAGCTA | -0.307 |
| CAAATTTC | 0.222 |
| ATGTTCAC | 0.119 |

Series 2
Target: RING finger protein unkempt homolog, zinc fingers 1-6, GST-SBP tag (UNK, Homo sapiens, UniProt Q9C0B0, residues 30-357)
Technique: RNA Bind-n-Seq
Molecule type: RNA
Medium: in vitro
Concentration: not given
Notes: RNA with constant flanks, human and mouse sites, ends assumed
Reference: input RNA pool
Reading: higher = stronger binding
Shared flanks, not repeated: GGGAGUUCUACAGUCCGACGAUC … CAACAGAGGAUUGAGCAUCA
Target sequence (chain): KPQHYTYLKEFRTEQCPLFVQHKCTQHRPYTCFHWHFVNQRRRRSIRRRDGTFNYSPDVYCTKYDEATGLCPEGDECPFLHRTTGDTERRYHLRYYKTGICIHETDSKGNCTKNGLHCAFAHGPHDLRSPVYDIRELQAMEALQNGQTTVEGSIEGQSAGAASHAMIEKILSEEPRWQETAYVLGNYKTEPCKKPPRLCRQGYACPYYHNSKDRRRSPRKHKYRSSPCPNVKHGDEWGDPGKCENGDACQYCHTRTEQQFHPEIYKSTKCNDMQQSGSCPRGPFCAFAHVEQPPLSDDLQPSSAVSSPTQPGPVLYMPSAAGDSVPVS
| Sequence | bound/input enrichment |
| --- | --- |
| CCUCAGAUGGUGUCUGCCAUUGUACGCACCAUGCAGAAUACAAAUGAUGUAGAGACAGCUCGUUGUACUGCUGGGACUCUGCACAACCUUUCUCACCACCGCGAGGGCUUGCUGGCCAUC | 0.112 ratio |
| GCUAUCCGAGAUGCAGGUUUUGAAAUCUCAGCUAUGCAGAUGUUCAAUAUGGAUCGGGUUAAUGUUGAGGAAUUCUAUGAAGUUUAUAAAGGAGUAGUGACCGAAUAUCAUGACAUGGUG | 0.43 ratio |
| AAGAUCAAAGAGAAAUACAUUGAUCAGGAAGAACUAAACAAGACCAAGCCUAUUUGGACCAGAAACCCUGAUGACAUCACCCAAGAGGAGUAUGGAGAAUUCUACAAGAGCCUCACUAAU | 0.114 ratio |
| AAGUCAGCAGCACAAGCCAGACGCCGGCUGAUGAGUGGAAAAGUAAAAGUGUGGGGAAAUGUAGUUACAGUUGAAUGGGCUGACCCUGUGGAAGAACCAGAUCCAGAAGUCAUGGCUAAG | 0.667 ratio |
| CUGUUGGAUGGAUUUCCAAGGACACUUCCACAGGCAGAAGCCCUGGAUAAAGUUUAUCAGAUAGACACAGUGAUAAAUCUCAACGUGCCCUUUGAGGUCAUUAAACAGCGCCUUACUGCU | 0.131 ratio |
| GGCACAUGCCUGCCAGCGUUGUGUCAUGCCUGUCCACAGGGGAUUCGUGGGGCUCACUUCAUCAGAGUUUGAAGCCCAAAUGAAACGCUGAAGUGACUGAGAACCUGGCUUCAGUAUAUU | 0.0762 ratio |
| CAAGAAGAGAUGAGUGAGAUGCAGAAAAAGAUUAAUGAAAUAGAGAAUUUAAAGAAUGAAUUAAAGAACAAAGAAUUGACAUUGGAACAUAUGGAAACAGAGAGGCUUGAGUUGGCUCAG | 12.9 ratio |

Series 3
Target: Histone acetyltransferase KAT6A, both winged helices, GST fusion (KAT6A, Homo sapiens, UniProt Q92794, residues 1-181)
Technique: protein binding microarray
Molecule type: double-stranded DNA, one strand shown
Medium: in vitro
Concentration: not given
Notes: 8-mer, flanks averaged, mean of 2 arrays, mostly near background
Reference: not given
Reading: higher = stronger binding
Construct (chain): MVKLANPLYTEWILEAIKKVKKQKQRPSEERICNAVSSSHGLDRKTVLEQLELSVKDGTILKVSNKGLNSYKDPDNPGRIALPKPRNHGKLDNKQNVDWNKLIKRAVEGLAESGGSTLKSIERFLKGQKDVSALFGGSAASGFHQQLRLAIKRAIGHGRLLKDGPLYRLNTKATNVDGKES
| Sequence | E-score |
| --- | --- |
| AACAACCA | -0.164 |
| AAGTGTAG | -0.234 |
| CCGAGGAC | 0.052 |
| GCTACCAA | 0.013 |
| GATAACAA | -0.0857 |
| GGGGCAAA | -0.116 |
| GAATGTAC | 0.0802 |
| ACTTTTAT | -0.146 |
| AGGACCAT | -0.0935 |

Further values, each from its own experiment
| Substance | target | assay | system | setting | scale | quantity | result |
| --- | --- | --- | --- | --- | --- | --- | --- |
| PhoQ, residues 284 288 289 292 302 303 SCKMEA | PhoP, residues 12 14 15 18 19 QQAYL (Escherichia coli, UniProt P23836) | Sort-seq, item: YFP reporter | E. coli | PhoQ-PhoP variant library, together with: 10 µM Mg2+ | reference: high Mg2+ state, higher = stronger signaling | fold induction | 17.2 |
